Measurements of several laboratories.
Each numbered part is a random draw from the data of one study; scales do not carry over between parts. Changes are numbered by the printed parent chain.

Block 1
Target: CCNE2, cyclin fold, Cln2 fusion (human)
Technique: yeast growth competition, sequencing
Sample: yeast
Notes: weak parent motif
Baseline: not given
Reading: higher = stronger binding
Starting sequence: E2F8 docking peptide (human); FVPQRKLEVSTED
| Variant | normalised enrichment score |
| --- | --- |
| FVPQRKLEVSTEA [D13A] | -0.109 |
| FVPQRKLELSTED [V9L] | -0.209 |
| FVPQRALEVSTED [K6A] | 0.279 |
| FVPQRKLEVATED [S10A] | 0.105 |
| FVPQRKAEVSTED [L7A] | -0.273 |
| FAPQRKLEVSTED [V2A] | -0.0325 |
| AVPQRKLEVSTED [F1A] | 0.402 |
| FVPQKKLEFSTED [R5K V9F] | -0.073 |

Block 2
Target: Interferon regulatory factor 7, full length, phosphomimetic (IRF7, Homo sapiens, UniProt Q92985, residues 1-503, S101K/S471D/S472D/S475D/S476D/S477D/S483D/S484D/S487D)
Technique: protein-binding microarray
Molecule type: double-stranded DNA, one strand shown
Sample: in vitro
Tested at: 250 nM
Notes: 60-bp whole probe
Together with: salmon DNA 0.4 mg/ml
Baseline: random background probes
Reading: higher = stronger binding
Shared flanks, not repeated: GCCTAGCAC … GTCTTGATTCGCTTGACGCTGCTG
Target sequence (chain): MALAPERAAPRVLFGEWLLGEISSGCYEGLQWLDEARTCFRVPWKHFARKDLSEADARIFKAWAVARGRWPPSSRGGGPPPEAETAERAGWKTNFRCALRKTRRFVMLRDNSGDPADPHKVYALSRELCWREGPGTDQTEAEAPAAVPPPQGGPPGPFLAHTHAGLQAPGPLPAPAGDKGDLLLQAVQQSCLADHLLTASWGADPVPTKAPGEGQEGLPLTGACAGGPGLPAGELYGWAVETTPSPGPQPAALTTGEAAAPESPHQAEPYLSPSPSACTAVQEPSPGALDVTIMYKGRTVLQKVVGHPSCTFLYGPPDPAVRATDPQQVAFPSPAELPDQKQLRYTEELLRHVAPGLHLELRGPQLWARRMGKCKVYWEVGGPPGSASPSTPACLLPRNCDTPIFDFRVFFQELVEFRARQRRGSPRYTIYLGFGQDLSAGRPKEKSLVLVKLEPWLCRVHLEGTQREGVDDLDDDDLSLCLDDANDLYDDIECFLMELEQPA
| Strand | log fluorescence [z-score] |
| --- | --- |
| AGATGTGTCTTAAATAGGGCAGTGCTA | -0.208 |
| TTAGGTTTCCTTCTCCTTCAGTGCTAG | 2.32 |
| TCAGCTTTCCTGATGGTACTGTGCTAG | -0.211 |
| TTGGGACTGGACACTGGGTTAGTGCTA | -0.75 |
| TCAACAATGATGTTTTGAACTGTGCTA | -0.437 |
| GACGGCTTCGGGACTGGGGACGTGCTA | -0.683 |
| TCAAGAATAATTTTTTAGACTGTGCTA | -0.441 |
| TTAGGCATCGACTTTCGGTTAGTGCTA | 1.26 |
| AAATTTTGATGAACTTAAGCGTGCTAG | -0.416 |
| GTAGGTCTCCTTATCCTTTAGTGCTAG | -0.0266 |
| GGAAGTATGACTCTGCCTCTGTGCTAG | -0.773 |
| TTTGGCTTTCCTTTATGTCCGTGCTAG | 0.0104 |
| TTAGATATCGGGACTGCATTAGTGCTA | -0.207 |
| GACGGTTTCGGGTATCGGAACGTGCTA | 8.16 |
| GTTATCCTATATCTGAACCGGTGCTAG | 2.61 |
| TTAGGTATCGGACCGGGTTAGTGCTAG | 0.41 |
| GACGATTTCGGGACTGGAGACGTGCTA | 0.117 |
| TTAGGTATAGACTTTCGGTTAGTGCTA | 0.643 |
| CTAGAACTGAGTTTCGATTAGTGCTAG | 8.21 |

Block 3
Target: Phosphate system positive regulatory protein PHO4, full length, GST-tagged (PHO4, Saccharomyces cerevisiae, UniProt P07270, residues 1-312)
Technique: competition protein-binding microarray
Molecule type: double-stranded DNA, one strand shown
Sample: in vitro
Tested at: 2 µM
Notes: whole 60-bp probe, lowest competitor level
Together with: Cbf1 competitor, 0.05 µM
Reading: higher = stronger binding
Shared flanks, not repeated: … GTCTTGATTCGCTTGACGCTGCTG
Residues (chain): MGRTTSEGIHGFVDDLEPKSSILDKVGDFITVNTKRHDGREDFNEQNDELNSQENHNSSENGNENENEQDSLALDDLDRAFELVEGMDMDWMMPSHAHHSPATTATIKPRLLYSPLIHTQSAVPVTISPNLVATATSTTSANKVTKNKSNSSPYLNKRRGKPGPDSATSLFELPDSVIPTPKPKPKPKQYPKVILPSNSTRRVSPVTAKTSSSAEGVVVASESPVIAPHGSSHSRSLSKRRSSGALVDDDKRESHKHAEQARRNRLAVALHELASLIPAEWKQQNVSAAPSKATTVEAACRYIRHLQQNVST
| Strand | fluorescence intensity |
| --- | --- |
| CAATCTCTTGAAGGCCATGTGTAGTGCAACCGGCTT | 7970 a.u. |
| CTTCTGTAAATTTGTCACGATACTTGACGCGCCCCG | 5660 a.u. |
| CGTCCTAGTGATTGTCACCATACTTCCATGAGGAAG | 4610 a.u. |
| TGCGCAACAACTTGCTCGGTGGGTGTATGTCTAGAA | 4440 a.u. |
| GTCTTGTCTCATTGTCACCGTACTTTCCCCACTTCA | 4490 a.u. |
| CCCCGAAATTGAGTGCACATGCTCGCAAGATAATAT | 10200 a.u. |
| CCAAACATTGTTCACCACGATGTTGTTCCAATGTTG | 11000 a.u. |
| CATACCCAACCTTGATCGGTGGGTGAAGATATTTGT | 3580 a.u. |
| GTCCCAAGCAGCTTCATCGTGATGGTCTCCTTCAGG | 4850 a.u. |
| CGGGGTTAAGTTTGTCACAGCACTTGCTTGCAGCAG | 3990 a.u. |
| AAATTACTAAGTTGTCACTCGACTTACCCCGTATGA | 3310 a.u. |
| CTTTCCCGATCTTGCGACGTGGGTGTAGCACATTTG | 6820 a.u. |
| AGGATAATCAGCTCTGTCGTGACGGATAAATGCTAT | 4040 a.u. |
| CTTTCCCGATCTTGCGCGGTGGGTGTAGCACATTTG | 4880 a.u. |
| ACTAATTAAGGTTCTCACGTGGAACTTCCGTCAATG | 15000 a.u. |
| CTTTCCCGATCTTGCTATGTGGGTGTAGCACATTTG | 5250 a.u. |
| TTTTTAATTCGGAATCAGGTGAAAGGTTTTATATCC | 3240 a.u. |

Block 4
Target: Sal-like protein 4, full length isoform A (SALL4, Homo sapiens, UniProt Q9UJQ4, residues 1-1053)
UniProt Q9UJQ4, sequence (whole entry, looked up): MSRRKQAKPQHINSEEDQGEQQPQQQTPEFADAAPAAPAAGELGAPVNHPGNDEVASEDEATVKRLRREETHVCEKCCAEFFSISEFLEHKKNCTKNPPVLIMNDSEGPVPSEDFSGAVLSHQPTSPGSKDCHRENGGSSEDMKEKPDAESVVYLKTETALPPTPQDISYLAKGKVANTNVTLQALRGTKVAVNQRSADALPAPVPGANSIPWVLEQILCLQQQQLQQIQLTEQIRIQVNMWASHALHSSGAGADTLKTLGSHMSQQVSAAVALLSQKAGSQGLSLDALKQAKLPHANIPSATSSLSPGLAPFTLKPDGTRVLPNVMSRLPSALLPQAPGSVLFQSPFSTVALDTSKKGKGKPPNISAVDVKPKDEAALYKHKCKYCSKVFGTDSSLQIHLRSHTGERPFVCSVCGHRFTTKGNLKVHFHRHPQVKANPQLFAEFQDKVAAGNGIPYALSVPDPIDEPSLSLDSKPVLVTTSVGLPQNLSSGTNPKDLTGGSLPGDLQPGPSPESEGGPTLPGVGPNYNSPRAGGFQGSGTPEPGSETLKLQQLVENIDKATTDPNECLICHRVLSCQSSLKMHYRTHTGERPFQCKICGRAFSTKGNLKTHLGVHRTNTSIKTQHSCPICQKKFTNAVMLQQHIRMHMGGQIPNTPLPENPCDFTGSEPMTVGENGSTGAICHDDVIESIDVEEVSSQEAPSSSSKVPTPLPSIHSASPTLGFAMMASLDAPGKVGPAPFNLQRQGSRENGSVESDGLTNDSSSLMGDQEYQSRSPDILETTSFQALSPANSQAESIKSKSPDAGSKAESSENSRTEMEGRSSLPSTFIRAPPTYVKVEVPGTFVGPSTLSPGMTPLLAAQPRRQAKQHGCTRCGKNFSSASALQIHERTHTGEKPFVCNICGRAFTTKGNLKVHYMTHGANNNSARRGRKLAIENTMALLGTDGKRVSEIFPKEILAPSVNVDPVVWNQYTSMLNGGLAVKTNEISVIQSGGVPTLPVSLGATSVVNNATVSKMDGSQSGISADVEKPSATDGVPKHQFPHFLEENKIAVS
Technique: universal PBM
Molecule type: double-stranded DNA, one strand shown
Sample: in vitro
Tested at: 600 nM
Notes: 8-mer, flanks averaged, mean of replicates
Reading: higher = stronger binding
| Strand | E-score |
| --- | --- |
| AGGGCGCC | -0.351 |
| TAAGGCCA | -0.121 |
| CGGTGACG | -0.14 |
| CCGAGTAG | -0.0643 |
| CAATTCTC | 0.104 |
| ACGTAACG | -0.114 |
| AAAGCGAG | 0.107 |
| CTCACAGC | -0.205 |
| CATGAAGC | 0.0372 |
| CAGCTGAC | -0.182 |
| CGTGTTAC | -0.0551 |
| AAACGACG | 0.102 |
| CGACAATC | -0.134 |
| ACAGCATG | -0.0625 |
| CCGCTGCG | -0.352 |
| AATGTCGT | 0.0703 |
| CAGGCCAA | -0.238 |
| CAATCCGA | 0.0844 |
| ACGGAGGC | -0.327 |
| AAGATACT | 0.137 |
| CCGGGGCC | -0.418 |
| CTATGCAG | 0.0949 |

Some of these lines once more (block 4):
| Strand | E-score |
| --- | --- |
| CCGCTGCG | -0.352 |
| CAGCTGAC | -0.182 |
| AAAGCGAG | 0.107 |
| ACGGAGGC | -0.327 |
